Measurements gathered from unrelated publications.
Each numbered part is a random draw from the data of one study; scales do not carry over between parts. Values joined by “and” are separate records of one study, mostly repeats; a detail may differ.
UniProt Q8WXR4, sequence (whole entry, looked up): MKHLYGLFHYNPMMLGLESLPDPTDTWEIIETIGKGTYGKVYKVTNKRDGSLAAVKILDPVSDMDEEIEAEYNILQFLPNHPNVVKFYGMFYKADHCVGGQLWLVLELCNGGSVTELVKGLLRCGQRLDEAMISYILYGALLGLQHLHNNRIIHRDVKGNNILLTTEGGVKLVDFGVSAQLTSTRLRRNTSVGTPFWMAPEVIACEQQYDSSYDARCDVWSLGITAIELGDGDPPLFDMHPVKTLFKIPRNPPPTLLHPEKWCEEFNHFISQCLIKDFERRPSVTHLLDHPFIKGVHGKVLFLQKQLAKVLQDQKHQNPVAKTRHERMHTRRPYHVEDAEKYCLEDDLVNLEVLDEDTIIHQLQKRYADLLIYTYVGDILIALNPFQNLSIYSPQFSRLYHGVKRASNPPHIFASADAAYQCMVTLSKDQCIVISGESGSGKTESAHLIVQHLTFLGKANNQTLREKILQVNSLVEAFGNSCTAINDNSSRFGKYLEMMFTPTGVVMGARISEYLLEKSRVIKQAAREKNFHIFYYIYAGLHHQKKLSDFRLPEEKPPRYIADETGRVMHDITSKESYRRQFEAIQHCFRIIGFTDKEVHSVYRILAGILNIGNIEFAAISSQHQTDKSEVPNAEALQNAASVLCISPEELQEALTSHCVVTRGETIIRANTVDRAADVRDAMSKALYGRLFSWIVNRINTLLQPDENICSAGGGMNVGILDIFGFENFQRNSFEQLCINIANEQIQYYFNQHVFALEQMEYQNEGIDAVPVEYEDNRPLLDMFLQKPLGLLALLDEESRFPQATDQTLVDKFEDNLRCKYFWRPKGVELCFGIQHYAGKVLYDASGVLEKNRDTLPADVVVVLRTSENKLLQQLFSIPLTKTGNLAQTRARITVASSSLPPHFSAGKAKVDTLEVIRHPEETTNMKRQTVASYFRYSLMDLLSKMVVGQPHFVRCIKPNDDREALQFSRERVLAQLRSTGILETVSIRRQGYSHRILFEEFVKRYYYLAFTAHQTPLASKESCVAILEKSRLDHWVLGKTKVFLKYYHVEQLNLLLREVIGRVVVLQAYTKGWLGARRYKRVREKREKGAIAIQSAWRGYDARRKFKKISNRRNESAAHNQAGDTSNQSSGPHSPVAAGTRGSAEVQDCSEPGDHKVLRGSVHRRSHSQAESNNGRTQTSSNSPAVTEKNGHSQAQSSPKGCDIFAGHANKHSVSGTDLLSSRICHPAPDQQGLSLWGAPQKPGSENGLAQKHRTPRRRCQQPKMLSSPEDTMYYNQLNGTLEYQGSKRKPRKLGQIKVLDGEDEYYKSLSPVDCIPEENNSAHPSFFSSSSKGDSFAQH
UniProt Q9BVS4, sequence (whole entry, looked up): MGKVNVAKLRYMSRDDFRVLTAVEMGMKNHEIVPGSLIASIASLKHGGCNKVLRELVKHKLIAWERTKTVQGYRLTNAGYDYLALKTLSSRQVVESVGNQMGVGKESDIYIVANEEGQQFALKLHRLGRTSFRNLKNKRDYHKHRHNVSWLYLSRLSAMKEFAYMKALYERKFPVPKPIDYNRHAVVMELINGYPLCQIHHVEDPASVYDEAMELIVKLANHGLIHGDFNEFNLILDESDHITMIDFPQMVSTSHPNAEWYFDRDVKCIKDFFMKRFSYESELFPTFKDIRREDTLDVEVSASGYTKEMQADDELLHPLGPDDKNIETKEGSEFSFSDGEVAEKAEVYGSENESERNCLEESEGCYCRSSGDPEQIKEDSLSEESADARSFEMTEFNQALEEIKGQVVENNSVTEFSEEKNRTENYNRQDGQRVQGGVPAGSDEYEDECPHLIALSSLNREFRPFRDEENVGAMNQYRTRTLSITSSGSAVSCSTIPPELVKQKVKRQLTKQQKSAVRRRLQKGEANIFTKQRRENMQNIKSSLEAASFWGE
UniProt Q9UQB9, sequence (whole entry, looked up): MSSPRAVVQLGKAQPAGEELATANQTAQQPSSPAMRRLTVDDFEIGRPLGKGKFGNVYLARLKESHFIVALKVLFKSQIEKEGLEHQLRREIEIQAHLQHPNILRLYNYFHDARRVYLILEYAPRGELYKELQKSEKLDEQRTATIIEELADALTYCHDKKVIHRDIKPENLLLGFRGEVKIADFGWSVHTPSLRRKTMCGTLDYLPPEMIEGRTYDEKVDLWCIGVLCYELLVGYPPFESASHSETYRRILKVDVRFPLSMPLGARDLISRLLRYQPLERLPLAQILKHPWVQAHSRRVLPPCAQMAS
UniProt O94804, sequence (whole entry, looked up): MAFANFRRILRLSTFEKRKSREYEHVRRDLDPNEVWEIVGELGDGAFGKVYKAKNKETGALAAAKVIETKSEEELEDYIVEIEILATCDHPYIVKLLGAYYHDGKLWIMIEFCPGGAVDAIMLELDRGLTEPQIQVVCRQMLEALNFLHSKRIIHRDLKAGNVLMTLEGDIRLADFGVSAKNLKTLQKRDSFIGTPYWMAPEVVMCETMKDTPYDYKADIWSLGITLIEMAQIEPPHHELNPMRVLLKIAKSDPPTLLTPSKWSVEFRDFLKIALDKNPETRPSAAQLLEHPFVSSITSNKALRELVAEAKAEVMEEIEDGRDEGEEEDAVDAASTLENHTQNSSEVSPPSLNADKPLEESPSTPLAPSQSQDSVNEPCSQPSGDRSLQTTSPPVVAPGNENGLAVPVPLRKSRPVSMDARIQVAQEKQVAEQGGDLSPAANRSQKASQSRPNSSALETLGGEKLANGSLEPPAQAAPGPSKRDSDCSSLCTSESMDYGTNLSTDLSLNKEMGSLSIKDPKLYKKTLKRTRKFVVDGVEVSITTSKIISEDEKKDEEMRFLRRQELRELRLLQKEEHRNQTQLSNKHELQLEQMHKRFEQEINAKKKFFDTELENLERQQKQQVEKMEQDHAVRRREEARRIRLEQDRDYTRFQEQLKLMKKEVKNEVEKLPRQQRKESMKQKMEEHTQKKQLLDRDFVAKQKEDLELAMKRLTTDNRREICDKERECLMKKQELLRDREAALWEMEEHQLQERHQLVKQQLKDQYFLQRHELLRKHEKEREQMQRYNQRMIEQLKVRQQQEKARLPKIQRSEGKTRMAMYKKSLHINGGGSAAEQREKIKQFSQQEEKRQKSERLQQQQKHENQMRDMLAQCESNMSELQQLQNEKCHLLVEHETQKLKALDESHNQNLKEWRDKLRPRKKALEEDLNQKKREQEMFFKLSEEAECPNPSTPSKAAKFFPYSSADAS
UniProt P52333, sequence (whole entry, looked up): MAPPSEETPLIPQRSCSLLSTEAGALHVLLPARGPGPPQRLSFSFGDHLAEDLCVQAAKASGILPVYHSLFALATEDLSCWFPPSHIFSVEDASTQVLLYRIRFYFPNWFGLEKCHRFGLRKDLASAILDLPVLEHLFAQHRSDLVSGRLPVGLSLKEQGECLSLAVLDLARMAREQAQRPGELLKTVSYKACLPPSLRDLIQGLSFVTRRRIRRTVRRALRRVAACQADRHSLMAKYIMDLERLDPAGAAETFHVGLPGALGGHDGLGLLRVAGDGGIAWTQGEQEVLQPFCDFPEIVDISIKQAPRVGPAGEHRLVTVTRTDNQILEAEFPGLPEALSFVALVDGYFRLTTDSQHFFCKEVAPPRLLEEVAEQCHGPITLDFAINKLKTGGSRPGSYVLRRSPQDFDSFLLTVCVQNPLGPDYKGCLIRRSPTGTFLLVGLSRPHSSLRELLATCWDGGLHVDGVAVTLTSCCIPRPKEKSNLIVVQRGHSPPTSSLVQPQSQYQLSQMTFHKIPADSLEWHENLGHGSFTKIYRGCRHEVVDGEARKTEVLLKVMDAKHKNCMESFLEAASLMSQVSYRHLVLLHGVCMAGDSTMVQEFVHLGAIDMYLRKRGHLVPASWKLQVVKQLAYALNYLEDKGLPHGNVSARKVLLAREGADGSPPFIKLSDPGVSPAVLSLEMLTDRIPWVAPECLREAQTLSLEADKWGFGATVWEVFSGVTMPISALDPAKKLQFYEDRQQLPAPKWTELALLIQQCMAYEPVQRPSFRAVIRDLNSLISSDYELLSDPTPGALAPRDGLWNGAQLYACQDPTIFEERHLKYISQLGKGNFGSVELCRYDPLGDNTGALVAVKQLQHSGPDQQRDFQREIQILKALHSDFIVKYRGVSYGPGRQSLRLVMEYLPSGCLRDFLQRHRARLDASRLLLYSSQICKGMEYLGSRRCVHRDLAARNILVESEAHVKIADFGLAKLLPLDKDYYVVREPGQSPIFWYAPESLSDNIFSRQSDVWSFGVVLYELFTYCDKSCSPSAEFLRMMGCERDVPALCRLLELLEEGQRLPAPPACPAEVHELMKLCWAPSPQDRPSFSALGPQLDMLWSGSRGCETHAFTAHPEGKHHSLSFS
UniProt Q8N5S9, sequence (whole entry, looked up): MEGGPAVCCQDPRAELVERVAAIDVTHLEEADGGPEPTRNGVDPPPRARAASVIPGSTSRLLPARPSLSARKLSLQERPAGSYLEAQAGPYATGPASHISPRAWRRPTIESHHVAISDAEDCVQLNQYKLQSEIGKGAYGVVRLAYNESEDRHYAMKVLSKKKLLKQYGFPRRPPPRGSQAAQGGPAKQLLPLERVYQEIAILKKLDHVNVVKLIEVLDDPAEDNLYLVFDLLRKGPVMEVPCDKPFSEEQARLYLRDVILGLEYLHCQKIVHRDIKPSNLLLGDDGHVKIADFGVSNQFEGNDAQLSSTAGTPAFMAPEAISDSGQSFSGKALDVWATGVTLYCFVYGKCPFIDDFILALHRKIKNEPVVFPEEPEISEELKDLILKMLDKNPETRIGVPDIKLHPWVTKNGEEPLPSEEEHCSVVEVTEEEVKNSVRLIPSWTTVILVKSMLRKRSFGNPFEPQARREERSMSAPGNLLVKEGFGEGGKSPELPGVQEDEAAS

Block 1
Structure (SMILES): CC(=O)N[C@@H](Cc1c[nH]c2ccccc12)C(=O)N[C@@H](CCC(=O)C=[N+]=[N-])C(=O)OC(C)C
Route: subcutaneous
Dose: 0.3 mg/kg/day DON equivalent
Time: 5 days
Reading: higher = more metabolite
| test | test system | metabolite peak area |
| --- | --- | --- |
| UPLC-MS/MS, measured: 5'-GMP | C57BL/6 CES1-/- mice, EL4 tumour | 1.14e+07 a.u. and 3.1e+07 a.u. and 1.44e+07 a.u. and 3.6e+07 a.u. and 3.51e+07 a.u. and 2.47e+07 a.u. |
| UPLC-MS/MS, measured: AICA ribonucleotide | C57BL/6 CES1-/- mice, EL4 tumour | 557000 a.u. and 365000 a.u. and 820000 a.u. and 855000 a.u. and 460000 a.u. and 299000 a.u. |
| UPLC-MS/MS metabolomics, measured: cysteine | EL4, C57BL/6 CES1-/- mice, EL4 tumour, tumour | 1e+07 a.u. and 1.13e+07 a.u. and 4.92e+06 a.u. and 7.56e+06 a.u. and 9.75e+06 a.u. and 3.92e+06 a.u. |
| UPLC-MS/MS, measured: trans-urocanate | C57BL/6 CES1-/- mice, EL4 tumour | 2.65e+06 a.u. and 1.14e+07 a.u. and 8.36e+06 a.u. and 2.15e+07 a.u. and 5.35e+06 a.u. |

Block 2
SMILES: COc1ccc2[nH]c3c4[nH]c5ccc(OC)cc5c4c4c(c3c2c1)C(=O)NC4=O
Read-out: binding
Concentration: 1 µM
| target | test | remaining binding [%] |
| --- | --- | --- |
| Ephrin type-B receptor 4 (EPHB4, Homo sapiens, UniProt P54760) | competition with immobilised ligand | 84 |
| Mitogen-activated protein kinase kinase kinase 4 (MAP3K4, Homo sapiens, UniProt Q9Y6R4) | competition with immobilised ligand | 100 |
| Tyrosine-protein kinase receptor Tie-1 (TIE1, Homo sapiens, UniProt P35590) | competition with immobilised ligand | 100 |
| Calcium/calmodulin-dependent protein kinase kinase 1 (CAMKK1, Homo sapiens, UniProt Q8N5S9) |  | 78 |
| Death-associated protein kinase 3 (DAPK3, Homo sapiens, UniProt O43293) |  | 4.8 |

Block 3
Structure (SMILES): COc1ccc2c(c1)O[C@@H](c1ccc(OC)c(OC)c1)C[C@H]2NC(=O)C1(c2ccc3c(c2)OC(F)(F)O3)CC1
Method: competition with immobilised ligand
Concentration: 1 µM
| target | test | remaining binding [%] |
| --- | --- | --- |
| Cyclin-dependent kinase 8 (CDK8, Homo sapiens, UniProt P49336) | cell-free assay | 100 |
| Focal adhesion kinase 1 (PTK2, Homo sapiens, UniProt Q05397) | cell-free assay | 94 |
| Receptor-type tyrosine-protein kinase FLT3 (FLT3, Homo sapiens, UniProt P36888, D835V/ITD) | cell-free assay | 65 |
| Serine/threonine-protein kinase Nek10 (NEK10, Homo sapiens, UniProt Q6ZWH5) | cell-free assay | 86 |
| Serine/threonine-protein kinase LATS2 (LATS2, Homo sapiens, UniProt Q9NRM7) | cell-free assay | 100 |
| Tyrosine-protein kinase JAK3, JH1 (JAK3, Homo sapiens, UniProt P52333) | cell-free assay | 88 |
| Mitogen-activated protein kinase kinase kinase kinase 1 (MAP4K1, Homo sapiens, UniProt Q92918) | cell-free assay | 90 |
| Aurora kinase C (AURKC, Homo sapiens, UniProt Q9UQB9) | cell-free assay | 100 |
| Non-receptor tyrosine-protein kinase TYK2, JH2 (TYK2, Homo sapiens, UniProt P29597) | cell-free assay | 91 |
| Serine/threonine-protein kinase 10 (STK10, Homo sapiens, UniProt O94804) | cell-free assay | 88 |
| BMP-2-inducible protein kinase (BMP2K, Homo sapiens, UniProt Q9NSY1) | cell-free assay | 100 |
| Phosphatidylinositol 5-phosphate 4-kinase type-2 gamma (PIP4K2C, Homo sapiens, UniProt Q8TBX8) | cell-free assay | 83 |
| Serine/threonine-protein kinase RIO2 (RIOK2, Homo sapiens, UniProt Q9BVS4) | cell-free assay | 100 |
| Myosin-IIIb (MYO3B, Homo sapiens, UniProt Q8WXR4) | binding | 100 |
| Dual serine/threonine and tyrosine protein kinase (DSTYK, Homo sapiens, UniProt Q6XUX3) | cell-free assay | 76 |

Block 4
Cell line: mouse MPNST tumor cells
Method: high-content immunofluorescence imaging
Measured: nuclear SOX9
Concentration: 10 µM
Time: 12 h
Notes: mean of 2 replicates
Baseline: DMSO control
Reading: higher = more nuclear SOX9
| Structure (SMILES) | nuclear SOX9 intensity |
| --- | --- |
| Nc1ccn([C@@H]2O[C@H](CO)[C@@H](O)C2(F)F)c(=O)n1 | 115 % of DMSO and 108 % of DMSO |
| O=C1c2cc3c(cc2OC2CCCN12)OCCO3 (stereo not drawn) | 94.4 % of DMSO |
| CC(C)(C)NC(=O)CN1CCC(CNC(=O)c2cc(F)cc(Cl)c2)CC1 | 99.8 % of DMSO |
| CC1=C(C(=O)Nc2cc3cn[nH]c3cc2F)C(c2ccc(C(F)(F)F)cc2)CC(=O)N1 (stereo not drawn) | 78.5 % of DMSO |
| COc1ccn2ncc(-c3nc4[nH]nc(NC(=O)c5ccc(F)cc5)c4cc3F)c2c1 | 101 % of DMSO |
| COc1cc(C)nc(-n2nc(C)cc2OC)n1 | 107 % of DMSO |

A few entries again (block 4):
| Structure (SMILES) | nuclear SOX9 intensity |
| --- | --- |
| Nc1ccn([C@@H]2O[C@H](CO)[C@@H](O)C2(F)F)c(=O)n1 | 115 % of DMSO and 108 % of DMSO |
| O=C1c2cc3c(cc2OC2CCCN12)OCCO3 (stereo not drawn) | 94.4 % of DMSO |
